Experimental data gathered from unrelated publications.
A part holds a random share of what one study measured. Positions count from the first letter of the parent shown.

Series 1
Target: RNA binding protein fox-1 homolog 2, RRM domain, GST-SBP tag (RBFOX2, Homo sapiens, UniProt O43251-10, residues 100-194)
Method: RNA Bind-n-Seq
Form: RNA
Medium: in vitro
Tested at: 365 nM
Notes: natural RNA segment, single round, ends assumed
Reference: no-protein control
Reading: higher = stronger binding
Shared flanks, not repeated: GGGAGUUCUACAGUCCGACGAUC … UGGAAUUCUCGGGUGCCAA
Target sequence (chain): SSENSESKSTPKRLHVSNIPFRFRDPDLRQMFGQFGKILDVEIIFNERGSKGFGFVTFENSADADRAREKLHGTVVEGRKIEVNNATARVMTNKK
Strand	RBNS enrichment (R)
GCCAGUUUUUUGUUUGCUUGUUUUUGAAACUGGGUUUAGGGGAUACAGUUGUCAGAAGUGACUCAUUCGCUUCAUUUGUGAUGAUUUUUUUUUAAUCUUCCUCUGUUAGC	35.3
AGGCUUUUAAGAAACACAGGGUUUUGUAUUCUUUACUAAAGAUAUCAGAGCUCUUAAUGUUGCUUAGAUGAGGGUGACUGUCAAGUACAAGCAAGACUGGGACCUUAGAA	0.203
CCCGUCCACUCUGGGGCUGCCCUACUGAAUGCCCCUUUCCAGGACCUUGGUAUUCCUUCUCAUUCAGUCCCCAGCACAUCCGGCUACCCCUAGCUCUCUCCACAUUCAUU	0.741
GUUGGUAACGUGCUGCCAGCACAGGGCUGGGUGAUACGUACACCCUAAGCCGGGGGUGCCUGGGGCUGGGGGGCGCUCCUUGCAAUGCCCCUCCAGCCACAGGGCAGUGA	0.306
CAUCCUCAGCCCAUCAUUUGUGAACACUGGACUCUGAAAUAAAUGCUGCCUGUCACGUGGACACUUUCUACCGCCAGGUUCUCUUCUCAGGGAGGAAGAUAAAGGGGGAA	0.454
GCACACAAAUGGACUUCUCUGAAGCUGUGUUUAGUGAAAUGAGCUCAAGUACAUGAAUGUUAGUUGUUAUCACAUACAGCAAAUUCCUUUUUUUUUCUUUUUCUAUGAGC	2.49
UUAGUUCUUUUCUUCUGACUCGUGGGGCUCCCUGCUGCAGAGAGCACAGCCCUUGCCUGGAGCCCAGGAACCCCAUCCUUGCUUCAUCUCAGUUCUUCAUGGGCUUCACU	0.351

Series 2
Target: CCNA2, cyclin fold, Cln2 fusion (human)
Method: yeast growth competition, sequencing
Medium: yeast
Notes: strong parent motif
Reference: not given
Reading: higher = stronger binding
Starting sequence: E2F1 docking peptide (human); PPVKRRLDFETDH
Variant	normalised enrichment score
PPVKARLDFETDH [R5A]	1.94
PPVKRGLDFETDH [R6G]	4.17
PPVHRRLDFETDH [K4H]	5.71
PPVKRRLTFETDH [D8T]	5.8
PPVKRRLIFETDH [D8I]	5.26

Series 3
Target: Interferon regulatory factor 5, full length, phosphomimetic (IRF5, Homo sapiens, UniProt Q13568-2, residues 1-514, S451D/S453D/S456D/S462D)
Method: protein-binding microarray
Form: double-stranded DNA, one strand shown
Medium: in vitro
Tested at: 940 nM top
Notes: 60-bp whole probe
Together with: salmon DNA 0.4 mg/ml
Reference: random background probes
Reading: higher = stronger binding
Shared flanks, not repeated: GCCTAGCAC … GTCTTGATTCGCTTGACGCTGCTG
Strand	fitted relative affinity
GACGGTCTCCTACTGCTGGCGTGCTAG	-0.158 z-score
GACGGACTGCTTCTCATGACGTGCTAG	0.143 z-score
GACGATTTGAGTCTCGAGACGTGCTAG	1.07 z-score
TTAGGTTACGGGTTTCGGTTAGTGCTA	5.67 z-score
TTAGGTTTCCGTATCCTTTAGTGCTAG	2.64 z-score
GACGTTTTCCTTTCCCTGACGTGCTAG	1.61 z-score

Mixed results
Molecule	target	test	test system	setting	how to read	measurement	result
PhoQ, residues 284 288 289 292 302 303 ASVMEA	PhoP, residues 12 14 15 18 19 SGWQI (Escherichia coli, UniProt P23836)	Sort-seq, item: YFP reporter	E. coli	PhoQ-PhoP variant library, together with: 10 µM Mg2+	reference: high Mg2+ state, higher = stronger signaling	fold induction	1.07

Excerpt of the above (series 1):
Strand	RBNS enrichment (R)
UUAGUUCUUUUCUUCUGACUCGUGGGGCUCCCUGCUGCAGAGAGCACAGCCCUUGCCUGGAGCCCAGGAACCCCAUCCUUGCUUCAUCUCAGUUCUUCAUGGGCUUCACU	0.351
GCCAGUUUUUUGUUUGCUUGUUUUUGAAACUGGGUUUAGGGGAUACAGUUGUCAGAAGUGACUCAUUCGCUUCAUUUGUGAUGAUUUUUUUUUAAUCUUCCUCUGUUAGC	35.3
